Measured values pooled from the literature.
Compare with care: the assays were run in different laboratories. Numbers after ± are the reported error. Values after ≈ are worked out from the molar mass of the structure shown.

Amino acid sequences for entries named in this document (tags omitted). Residues count along the entry.
UniProt Q9Y5N1, whole entry: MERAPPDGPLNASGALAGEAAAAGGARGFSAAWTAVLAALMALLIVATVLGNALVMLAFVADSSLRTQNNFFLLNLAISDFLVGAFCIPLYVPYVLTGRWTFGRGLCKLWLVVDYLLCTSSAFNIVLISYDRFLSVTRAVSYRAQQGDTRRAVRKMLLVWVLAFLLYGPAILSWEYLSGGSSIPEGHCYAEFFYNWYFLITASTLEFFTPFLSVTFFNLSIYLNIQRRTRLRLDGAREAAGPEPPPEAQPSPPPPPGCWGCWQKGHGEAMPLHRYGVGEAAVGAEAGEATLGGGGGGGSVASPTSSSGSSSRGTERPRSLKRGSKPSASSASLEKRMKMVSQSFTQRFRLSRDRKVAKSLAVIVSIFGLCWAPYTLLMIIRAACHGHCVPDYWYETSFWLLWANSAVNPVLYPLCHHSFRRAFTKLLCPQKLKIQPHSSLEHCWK
UniProt P35353, 24-415 limits assumed: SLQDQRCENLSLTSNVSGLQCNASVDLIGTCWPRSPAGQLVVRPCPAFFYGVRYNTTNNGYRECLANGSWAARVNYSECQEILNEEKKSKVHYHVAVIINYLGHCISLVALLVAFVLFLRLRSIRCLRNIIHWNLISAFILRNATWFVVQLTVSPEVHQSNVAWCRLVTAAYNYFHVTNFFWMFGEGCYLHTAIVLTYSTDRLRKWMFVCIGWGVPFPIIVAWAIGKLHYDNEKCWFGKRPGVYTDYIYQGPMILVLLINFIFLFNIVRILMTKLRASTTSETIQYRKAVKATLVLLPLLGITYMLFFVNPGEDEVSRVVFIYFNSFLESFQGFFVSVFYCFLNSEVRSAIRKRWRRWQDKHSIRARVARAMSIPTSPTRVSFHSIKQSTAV

The MIC50 of NC1=NC2(CCCCC2)N(c2ccc(OCc3cn(CCCCOc4ccc5ccc(=O)oc5c4)nn3)cc2)C(N)=N1 is reported as 1.6 µM (≈ 0.913 µg/mL) (Mycobacterium bovis BCG; resistant, thyA W133S).
For [11CH3]Nc1ccc(C(=O)C2CCN(C3Cc4ccccc4CC3O)CC2)cc1 (single isomer, unassigned), the uptake was 0.265 %ID/g (Sprague-Dawley rat, hippocampus; 30 min).
Cc1ccc(-c2csc(NP(=O)(O)OCC3OC(n4c[n+](Cc5ccccc5)c5c(=O)[nH]c(NC(=O)c6ccccc6)nc54)C4OC(C)(C)OC34)n2)cc1 (centres unmarked) gave an IC50 of 37 ± 0.58 µM (MCF7; cell growth, SRB).
CC(CCN[C@H](CN[C@H](CO)CN1CCC[C@H]1CN[C@H](CN)c1ccccc1)c1ccccc1)c1ccccc1 (some centres unmarked) — result for “potentiation of amikacin”: 2.6 fold (Klebsiella pneumoniae; bacterial growth; 24 µM, fold shift of IC50, with: amikacin).
CC(C)C[C@@H]1NC(=O)[C@H](CCC(=O)O)NC(=O)[C@@H]2CSSC[C@@H]3NC(=O)[C@H](C)NC(=O)[C@@H]4CCCN4C(=O)[C@H](CC(N)=O)NC(=O)[C@H](CSSC[C@H](NC(=O)[C@H](Cc4ccc(O)cc4)NC(=O)[C@H](CC(N)=O)NC(=O)[C@H](CO)NC(=O)[C@H](CO)NC(=O)CN4CCN(CC(=O)O)CCN(CC(=O)O)CC4)C(=O)N2)NC(=O)[C@H](CSSC[C@@H](C(=O)N[C@@H](Cc2ccccc2)C(=O)O)NC(=O)CNC(=O)[C@H]([C@@H](C)O)NC3=O)NC1=O [copper-64 labelled] has an internalized radioactivity of 43.6 ± 3.6% (T84; concentration not given, 100 min, pH 5.5, 37 °C, 64Cu-labelled compound; relative to: cell-associated).
NC[C@@H](NC[C@@H]1CCCN1C[C@@H](CO)NC[C@@H](NCCc1ccc(Cl)c(Cl)c1)c1ccccc1)c1ccccc1 has an IC90 of over 24 µM (Klebsiella pneumoniae; bacterial growth; compound alone).
The inhibition of COc1ccc(CN[C@@H]2CO[C@H](C(c3ccccc3)c3ccccc3)C[C@H]2O)cc1 is reported as 3% (Histamine H3 receptor (HRH3, Homo sapiens, UniProt Q9Y5N1); radioligand binding; 10 µM, with: [3H]alpha-methylhistamine).
O=S(=O)(N[C@H]1CCC[C@@H](N2c3ccccc3CCc3ccccc32)[C@@H]1O)c1ccc(OC(F)(F)F)cc1 has a survival increase of about 2 fold (mice, intracranial glioblastoma xenograft; oral, 100 mg/kg twice daily; relative to: vehicle).
CCCCCCCCCCCCNC(=O)N[C@H](C(=O)N[C@H]1/C=C/CCNC(=O)/C=C/[C@H](C)NC1=O)C(C)C gave an EC50 of 0.0644 ± 0.0021 µM (Mino; cell viability, CellTiter-Glo; 24 h).
CC(C)C[C@@H](NC(=O)[C@H](NC(=O)[C@H]1CCCN1)[C@H](C)O)C(=O)N[C@H](Cc1c[nH]cn1)C(=O)N[C@@H](C(=O)N[C@H](Cc1c[nH]cn1)C(=O)N[C@H](CC(N)=O)C(=O)N[C@H](CCCNC(=N)N)C(=O)N[C@H](CCCNC(=N)N)C(=O)N[C@H](CCCNC(=N)N)C(=O)N[C@H](CCCNC(=N)N)C(=O)N[C@H](CCCNC(=N)N)C(N)=O)[C@H](C)O — result for “time above LLOQ”: at most 48 h (healthy human, plasma; oral, 320 mg single dose, LLOQ 0.5 ng/mL).
For NCCNCCSc1ccccc1, the unbound concentration was 39000 ± 850 ng/mL (ultrafiltration; mouse plasma, female; 50 µg/mL, 60 min, 37 °C).
Under “MIC of ampicillin”, Nc1cc(S(=O)(=O)O)cc2cc(S(=O)(=O)O)cc(O)c12 is recorded as 512 µg/mL (Escherichia coli; bacterial growth, broth microdilution; expressing OXA-48; 64 µg/mL, with: ampicillin; MIC of ampicillin).
C=CC(=O)Nc1cc(-n2c(=O)ccc3cnc4ccc(-c5cn[nH]c5)cc4c32)ccc1C — result for “concentration inducing apoptosis”: 300 nM (Ramos; western blot, refers to: PARP and caspase-3 cleavage; 24 h).
Under “time to zero efficacy increase”, CN1CC[C@]23c4c5ccc(O)c4O[C@H]2c2ncc(-c4ccc(Cl)cc4)cc2C[C@@]3(OCCCc2ccccc2)[C@H]1C5 is recorded as 95.5% (CD-1 mouse, chemotherapy-induced neuropathy; 3.2 mg/kg; relative to: morphine 10 mg/kg).
The uptake ratio of COCCN(CCOC)c1nc(C)nc2c(-c3c(OC)cc([76Br])cc3OC)c(C)nn12 is reported as 176% (Corticotropin-releasing factor receptor 1 (Rattus norvegicus, UniProt P35353); ex vivo autoradiography; rat, awake, cerebellum; intravenous, 1 h; relative to: choroid plexus).
O=S(=O)(O)c1ccc2cc(S(=O)(=O)O)ccc2c1: “MIC of ampicillin” 256 µg/mL (Escherichia coli; bacterial growth, broth microdilution; expressing OXA-48; 4 µg/mL, with: ampicillin; MIC of ampicillin).
For O=C(O)CC1Sc2nnc(-c3cccs3)n2N=C1c1ccc(Cl)cc1 (centres unmarked), the Ki was 25 ± 8 µM (UGM of Caenorhabditis elegans; enzyme activity, inhibitor).
With CC1(C)CC[C@]2(C(=O)O)CC[C@]3(C)C(=CC[C@@H]4[C@@]5(C)CC[C@H](OC(=O)NCc6ccccc6)C(C)(C)[C@@H]5CC[C@]43C)[C@@H]2C1 the Tmax was 4 h (C57BL/6 mice, brain; intraperitoneal, 85 µmol/kg).
The viability of O=C(NC1CCN(c2ncnc3[nH]cnc23)CC1)c1cccc(NS(=O)(=O)c2ccc([N+](=O)[O-])cc2)c1 is reported as 107% (A549-ACE2; 0.03048 µM).
O=S(=O)(O)c1ccc2c(c1)Cc1cc(S(=O)(=O)O)ccc1-2 — result for “MIC of ampicillin”: 128 µg/mL (Escherichia coli; bacterial growth, broth microdilution; expressing OXA-48; 64 µg/mL, with: ampicillin; MIC of ampicillin).
For COc1ccc2c(c1)c(CC(=O)NCCCCNC(=O)CCC(=O)OC1c3cc4c(cc3C(c3cc(OC)c(OC)c(OC)c3)C3C(=O)OCC13)OCO4)c(C)n2C(=O)c1ccc(Cl)cc1 (centres unmarked), “reduction in cell number” read about 80% (1483 HNSCC cells; 10 µM, 72 h, 5 h exposure then washout; relative to: vehicle).
NC[C@@H](NC[C@@H]1CCCN1C[C@@H](CO)NC[C@@H](NCCC12CC3CC(CC(C3)C1)C2)c1ccccc1)c1ccccc1 — result for “potentiation of amikacin”: 3.2 fold (Klebsiella pneumoniae; bacterial growth; 24 µM, fold shift of IC90, with: amikacin).
Under “MIC of meropenem”, C[C@H](CS)C(=O)N[C@H](Cc1c[nH]c2ccccc12)C(=O)O is recorded as 8 µg/mL (Klebsiella pneumoniae; IMP-1 producing; 10 µM, with: meropenem).
NC[C@@H](NC[C@@H]1CCCN1C[C@@H](CO)NC[C@@H](NCCc1ccc(-c2ccccc2)cc1)c1ccccc1)c1ccccc1 — result for “potentiation of amikacin”: 1.6 fold (Acinetobacter baumannii; bacterial growth; 8 µM, fold shift of IC50, with: amikacin).
C[C@@H]1CN(C)CCN1c1nc(-c2ccc(F)cc2)cs1: immobility time “decreased” (tail suspension test; C57BL/6J male mice; 5 mg/kg daily, days 0, 1, 3, learned helplessness model).
Under NAD+ level, Cc1ncsc1-c1ccc([C@H](C)NC(=O)[C@@H]2C[C@@H](O)CN2C(=O)[C@@H](NC(=O)COCCOCCOCCOCCNC(=O)c2ccc(CN3CCN(S(=O)(=O)c4ccc(NC(=S)NCc5cccnc5)cc4)CC3)cc2)C(C)(C)C)cc1 is recorded as “decreased” (CT26; intracellular; concentration not given).
NC[C@@H](NC[C@@H]1CCCN1C[C@@H](CO)NC[C@@H](NCCC1CC2CCC1C2)c1ccccc1)c1ccccc1 (some centres unmarked) — result for “potentiation of amikacin”: 4.6 fold (Acinetobacter baumannii; bacterial growth; 24 µM, fold shift of IC50, with: amikacin).
For Nc1n[nH]c(=O)[nH]1, the IC50 was 82000 µM (Aliivibrio fischeri; bioluminescence, Microtox; 30 min).
CO[C@H]1[C@H](O[C@H]([C@H]2O[C@@H](n3ccc(=O)[nH]c3=O)[C@H](O)[C@@H]2O)[C@H](NCCCNC(=O)[C@@H](NC(=O)[C@@H](NC(=O)N[C@H](C(=O)O)C(C)C)[C@@H]2CCNC(=N)N2)[C@@H](OC(=O)CCCCCCCCCCCCN(O)C(=N)N)C(C)C)C(N)=O)O[C@H](CN)[C@H]1O gave an MIC90 of 6.4 ± 0.081 µg/mL (≈ 5.27 µM) (Bacillus subtilis; alamar blue; ATCC 6051).
With CC(C)C(C(=O)N(Cc1ccc(C2CCCCC2)cc1)c1ccc(C(=O)O)cc1)N(C)S(=O)(=O)c1c(F)c(F)c(F)c(F)c1F (centres unmarked) the IC50 was 4.7 ± 0.1 µM (Pa03C-CAF19 co-culture (2:1); cell growth, MTS; 72 h).
For O=C(NC1CCN(c2ncnc3[nH]cnc23)CC1)c1cccc(S(=O)(=O)Nc2ccc(Cl)cc2)c1, the viability was 100% (A549-ACE2; 22.22 µM).
The IC50 of CC1(C)OC2C(COP(=O)(O)Nc3nccs3)OC(n3cnc4c(=O)[nH]c(NC(=O)c5ccccc5)nc43)C2O1 (centres unmarked) is reported as over 100 µM (MCF7; cell growth, SRB).

Some of these lines once more:
For O=C(O)CC1Sc2nnc(-c3cccs3)n2N=C1c1ccc(Cl)cc1 (centres unmarked), the Ki was 25 ± 8 µM (UGM of Caenorhabditis elegans; enzyme activity, inhibitor).
Under “time to zero efficacy increase”, CN1CC[C@]23c4c5ccc(O)c4O[C@H]2c2ncc(-c4ccc(Cl)cc4)cc2C[C@@]3(OCCCc2ccccc2)[C@H]1C5 is recorded as 95.5% (CD-1 mouse, chemotherapy-induced neuropathy; 3.2 mg/kg; relative to: morphine 10 mg/kg).
